{"data": "Measurements gathered from unrelated publications", "CYP1A2": "Cytochrome P450 1A2 (CYP1A2, Homo sapiens, UniProt P05177)", "CYP2D6": "Cytochrome P450 2D6 (CYP2D6, Homo sapiens, UniProt P10635)", "note": "Lines come from different studies, so protocols differ. Values joined by “and” are separate records of one study, mostly repeats; a detail may differ. Numbers after ± are the reported error.", "chain of UniProt P05177 (whole entry, looked up)": "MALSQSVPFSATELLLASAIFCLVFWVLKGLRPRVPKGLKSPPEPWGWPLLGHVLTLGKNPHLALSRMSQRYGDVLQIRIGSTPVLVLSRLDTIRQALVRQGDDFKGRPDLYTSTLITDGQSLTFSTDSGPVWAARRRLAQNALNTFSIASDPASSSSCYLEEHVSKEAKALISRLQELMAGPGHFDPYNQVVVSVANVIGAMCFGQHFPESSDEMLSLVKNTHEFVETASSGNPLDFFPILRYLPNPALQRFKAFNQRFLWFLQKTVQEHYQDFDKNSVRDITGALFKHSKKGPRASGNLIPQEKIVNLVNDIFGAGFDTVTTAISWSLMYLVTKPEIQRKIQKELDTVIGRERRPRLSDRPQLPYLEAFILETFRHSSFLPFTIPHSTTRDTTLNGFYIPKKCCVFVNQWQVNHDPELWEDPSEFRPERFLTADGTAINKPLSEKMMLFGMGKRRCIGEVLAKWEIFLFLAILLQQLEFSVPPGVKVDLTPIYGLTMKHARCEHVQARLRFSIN", "chain of UniProt P10632 (whole entry, looked up)": "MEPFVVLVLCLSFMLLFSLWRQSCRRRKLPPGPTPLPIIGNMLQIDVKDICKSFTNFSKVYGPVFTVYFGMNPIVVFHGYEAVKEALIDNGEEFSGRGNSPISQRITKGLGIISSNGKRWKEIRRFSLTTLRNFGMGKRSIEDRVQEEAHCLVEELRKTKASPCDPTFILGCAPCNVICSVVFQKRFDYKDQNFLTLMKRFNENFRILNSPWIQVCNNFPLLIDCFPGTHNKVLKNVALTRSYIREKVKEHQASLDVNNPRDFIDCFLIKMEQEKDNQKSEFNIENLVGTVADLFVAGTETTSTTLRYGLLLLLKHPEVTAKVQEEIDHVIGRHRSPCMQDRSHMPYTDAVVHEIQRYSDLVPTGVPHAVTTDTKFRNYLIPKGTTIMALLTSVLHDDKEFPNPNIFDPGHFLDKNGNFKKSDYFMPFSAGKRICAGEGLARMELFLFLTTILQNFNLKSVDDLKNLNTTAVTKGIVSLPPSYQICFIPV", "chain of UniProt P10635 (whole entry, looked up)": "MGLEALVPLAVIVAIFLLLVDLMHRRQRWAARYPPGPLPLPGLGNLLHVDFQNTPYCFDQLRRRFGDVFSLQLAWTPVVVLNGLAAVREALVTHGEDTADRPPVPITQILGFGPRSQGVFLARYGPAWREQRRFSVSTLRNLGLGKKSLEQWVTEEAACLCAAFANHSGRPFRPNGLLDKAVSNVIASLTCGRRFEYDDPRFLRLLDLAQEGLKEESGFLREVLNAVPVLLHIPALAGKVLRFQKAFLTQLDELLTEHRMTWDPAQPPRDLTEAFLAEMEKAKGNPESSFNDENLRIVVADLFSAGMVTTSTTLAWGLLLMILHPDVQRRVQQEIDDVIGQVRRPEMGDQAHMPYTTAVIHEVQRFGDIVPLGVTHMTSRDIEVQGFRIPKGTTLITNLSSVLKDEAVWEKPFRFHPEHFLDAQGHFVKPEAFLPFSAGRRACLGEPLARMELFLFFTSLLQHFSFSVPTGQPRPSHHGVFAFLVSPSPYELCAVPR", "chain of UniProt P10636 (whole entry, looked up)": "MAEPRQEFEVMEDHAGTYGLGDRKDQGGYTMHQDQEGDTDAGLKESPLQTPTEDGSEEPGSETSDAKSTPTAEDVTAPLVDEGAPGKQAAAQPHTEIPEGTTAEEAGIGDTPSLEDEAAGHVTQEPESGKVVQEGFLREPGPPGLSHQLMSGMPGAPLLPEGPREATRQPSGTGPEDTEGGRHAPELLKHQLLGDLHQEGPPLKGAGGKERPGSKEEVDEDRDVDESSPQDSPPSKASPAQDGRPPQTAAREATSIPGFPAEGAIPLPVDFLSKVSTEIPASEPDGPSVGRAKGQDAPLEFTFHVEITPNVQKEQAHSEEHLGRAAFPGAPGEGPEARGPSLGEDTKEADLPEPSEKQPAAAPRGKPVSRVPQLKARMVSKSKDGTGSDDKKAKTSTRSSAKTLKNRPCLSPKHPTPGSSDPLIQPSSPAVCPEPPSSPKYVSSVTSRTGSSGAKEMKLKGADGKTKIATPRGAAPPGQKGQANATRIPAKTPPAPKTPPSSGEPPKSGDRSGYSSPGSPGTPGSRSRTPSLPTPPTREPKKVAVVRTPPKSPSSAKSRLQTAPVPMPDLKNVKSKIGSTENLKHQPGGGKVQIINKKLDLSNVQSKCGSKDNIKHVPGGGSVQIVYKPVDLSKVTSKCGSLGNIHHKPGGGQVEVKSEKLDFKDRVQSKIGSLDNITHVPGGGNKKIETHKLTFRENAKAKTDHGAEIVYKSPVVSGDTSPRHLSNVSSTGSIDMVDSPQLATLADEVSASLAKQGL", "chain of UniProt Q96JM7 (whole entry, looked up)": "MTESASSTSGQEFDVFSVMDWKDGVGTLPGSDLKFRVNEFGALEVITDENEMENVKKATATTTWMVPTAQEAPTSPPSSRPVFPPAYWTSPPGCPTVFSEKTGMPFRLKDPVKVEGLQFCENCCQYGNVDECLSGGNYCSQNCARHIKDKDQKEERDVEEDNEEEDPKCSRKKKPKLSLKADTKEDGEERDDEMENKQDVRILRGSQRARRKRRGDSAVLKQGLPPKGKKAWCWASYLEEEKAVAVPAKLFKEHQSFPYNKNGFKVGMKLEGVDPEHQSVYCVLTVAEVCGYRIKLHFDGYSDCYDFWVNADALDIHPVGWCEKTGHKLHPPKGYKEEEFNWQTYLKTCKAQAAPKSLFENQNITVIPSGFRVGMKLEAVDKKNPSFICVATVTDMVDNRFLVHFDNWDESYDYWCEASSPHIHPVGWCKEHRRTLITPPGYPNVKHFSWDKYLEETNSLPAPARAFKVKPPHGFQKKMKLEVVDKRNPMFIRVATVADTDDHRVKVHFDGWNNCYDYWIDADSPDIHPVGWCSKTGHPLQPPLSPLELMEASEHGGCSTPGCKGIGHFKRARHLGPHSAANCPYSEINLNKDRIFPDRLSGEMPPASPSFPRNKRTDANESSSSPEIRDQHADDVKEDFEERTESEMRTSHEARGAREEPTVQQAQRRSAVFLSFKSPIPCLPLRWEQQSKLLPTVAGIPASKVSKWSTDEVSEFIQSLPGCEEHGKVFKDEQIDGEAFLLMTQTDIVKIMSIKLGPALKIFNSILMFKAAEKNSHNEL", "chain of UniProt Q9H3R0 (whole entry, looked up)": "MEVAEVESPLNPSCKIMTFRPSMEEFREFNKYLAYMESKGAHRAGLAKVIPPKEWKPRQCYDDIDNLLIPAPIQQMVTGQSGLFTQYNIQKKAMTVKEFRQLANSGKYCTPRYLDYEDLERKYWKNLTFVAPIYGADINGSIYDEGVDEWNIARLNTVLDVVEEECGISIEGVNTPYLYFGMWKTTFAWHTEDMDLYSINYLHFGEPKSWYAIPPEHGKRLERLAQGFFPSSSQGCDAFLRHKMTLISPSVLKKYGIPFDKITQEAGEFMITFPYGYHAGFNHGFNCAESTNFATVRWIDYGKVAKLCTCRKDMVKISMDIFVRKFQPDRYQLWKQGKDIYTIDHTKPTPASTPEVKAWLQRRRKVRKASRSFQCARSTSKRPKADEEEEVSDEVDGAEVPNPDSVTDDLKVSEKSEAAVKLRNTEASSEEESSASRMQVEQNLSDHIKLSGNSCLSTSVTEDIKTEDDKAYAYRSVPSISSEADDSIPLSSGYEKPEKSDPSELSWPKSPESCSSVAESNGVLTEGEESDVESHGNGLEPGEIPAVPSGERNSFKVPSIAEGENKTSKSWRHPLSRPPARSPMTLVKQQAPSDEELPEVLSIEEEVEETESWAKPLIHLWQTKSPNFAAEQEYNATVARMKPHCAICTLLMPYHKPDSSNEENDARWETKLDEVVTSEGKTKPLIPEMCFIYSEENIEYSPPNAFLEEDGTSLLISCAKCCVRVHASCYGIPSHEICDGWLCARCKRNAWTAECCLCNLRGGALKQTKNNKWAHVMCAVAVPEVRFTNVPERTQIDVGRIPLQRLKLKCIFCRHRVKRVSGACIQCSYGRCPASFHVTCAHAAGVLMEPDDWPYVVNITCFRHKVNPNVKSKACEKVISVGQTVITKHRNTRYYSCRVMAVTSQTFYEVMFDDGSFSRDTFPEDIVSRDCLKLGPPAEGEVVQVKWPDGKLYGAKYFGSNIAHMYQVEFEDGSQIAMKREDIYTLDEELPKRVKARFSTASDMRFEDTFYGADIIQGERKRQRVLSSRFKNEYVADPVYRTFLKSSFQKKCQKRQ", "chain of UniProt P51589 (whole entry, looked up)": "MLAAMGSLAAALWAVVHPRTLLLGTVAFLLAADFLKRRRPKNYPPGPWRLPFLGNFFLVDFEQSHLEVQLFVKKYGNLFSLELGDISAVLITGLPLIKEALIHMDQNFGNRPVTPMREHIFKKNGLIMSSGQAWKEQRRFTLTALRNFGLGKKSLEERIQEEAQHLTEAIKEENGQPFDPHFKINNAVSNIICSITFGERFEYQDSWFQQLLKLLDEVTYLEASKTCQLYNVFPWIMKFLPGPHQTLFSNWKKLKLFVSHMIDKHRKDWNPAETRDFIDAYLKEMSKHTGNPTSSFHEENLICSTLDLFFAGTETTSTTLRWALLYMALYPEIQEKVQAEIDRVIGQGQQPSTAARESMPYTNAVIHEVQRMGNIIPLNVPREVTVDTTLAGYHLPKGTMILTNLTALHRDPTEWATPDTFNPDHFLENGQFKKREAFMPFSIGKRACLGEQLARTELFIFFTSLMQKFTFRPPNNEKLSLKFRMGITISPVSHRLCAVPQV"}
{"SMILES": "[2H]c1c(NS(C)(=O)=O)c([2H])c2c(C(=O)c3ccc(OCCCN(CCCC)CCCC)cc3)c(CCCC)oc2c1[2H]", "target": "Cytochrome P450 2J2 (CYP2J2, Homo sapiens, UniProt P51589)", "assay": "inactivator", "conditions": "together with: astemizole substrate", "measurement": "kinact", "result": "0.03 ± 0.005 min⁻¹"}
{"SMILES": "COC1C(c2ccc(Cl)c(Cc3ccc(OC4CCOC4)cc3)c2)OC(CO)C(O)C1O (stereo not shown)", "target": "CYP1A2", "assay": "enzyme activity, inhibitor", "system": "human, liver microsomes", "conditions": "10 µM, 10 min", "measurement": "inhibition", "result": "< 1%"}
{"SMILES": "C=C(NC(=O)c1csc(-c2nc3c(cc2O)-c2nc(cs2)C(=O)NC(C(C)O)C(=O)NC(=C(C)OC)c2nc(cs2)C(=O)NC2c4nc(cs4)C(=O)NC(COC(=O)c4c5c6c(cccc6n4O)COC(=O)C(OC4CC(C)(O)C(N(C)C)C(C)O4)C2OC5)c2nc-3cs2)n1)C(N)=O (stereo not shown)", "target": "CYP1A2", "assay": "enzyme activity, inhibitor", "conditions": "up to 50 µM, pH 7.4", "measurement": "remaining activity", "result": "> 70%"}
{"SMILES": "O=C(CN1CN(c2cccc(F)c2)C2(CCN(C(=O)c3cnc4[nH]ncc4c3)CC2)C1=O)NCC(F)(F)F", "target": "CYP2D6", "assay": "enzyme activity, inhibitor", "measurement": "IC50", "result": "13 µM"}
{"SMILES": "[18F]c1ncccc1-c1ccc2c(n1)[nH]c1ccncc12", "target": "MAPT (Homo sapiens, UniProt P10636)", "assay": "PET imaging", "system": "healthy control subjects", "conditions": "intravenous, dose not given, first 5 min", "measurement": "initial brain uptake", "result": "~2 SUV"}
{"SMILES": "O=C(c1ccc(C(=O)N2CCC(N3CCCCC3)CC2)cc1)N1CCC(N2CCCCC2)CC1", "target": "Lethal(3)malignant brain tumor-like protein 3, MBT domains (Homo sapiens, UniProt Q96JM7)", "assay": "FRAP", "system": "human cells", "conditions": "1 µM", "measurement": "FRAP recovery half-time", "result": "8.2 s"}
{"SMILES": "Nc1nc(SCc2ccc(Cl)cc2)nn1S(=O)(=O)c1ccc2c(c1)CCO2", "target": "CYP1A2", "assay": "enzyme activity, inhibitor", "system": "human, liver microsomes", "conditions": "10 µM", "measurement": "inhibition", "result": "34%"}
{"SMILES": "CNC(=O)C1CCCN(C(=O)C2CC3CCC2N3C(=O)[C@@H]2C[C@@H](O)CN2C(=O)NCc2cccc(Cl)c2F)C1 (mixture of isomers)", "target": "Cytochrome P450 2C8 (CYP2C8, Homo sapiens, UniProt P10632)", "assay": "preincubation without NADPH", "system": "human", "conditions": "0.0686 µM", "scale": "relative to: negative control", "measurement": "remaining activity", "result": "96.5% and 103%"}
{"SMILES": "CC(C)c1ccc(N(C)c2ccc3c(c2)OCC[C@H]3CNc2cnccc2C(=O)O)cc1", "target": "KDM4C (Homo sapiens, UniProt Q9H3R0)", "assay": "TR-FRET", "measurement": "residence half-life", "result": "1.13 ± 0.0667 h"}
{"SMILES": "O=C(CN1CN(c2ccccc2)C2(CCN(C(=O)c3ccc4[nH]ncc4c3)CC2)C1=O)Nc1ccccn1", "target": "CYP2D6", "assay": "enzyme activity, inhibitor", "measurement": "IC50", "result": "> 50 µM"}
{"note": "Excerpt of the above:"}
{"SMILES": "Nc1nc(SCc2ccc(Cl)cc2)nn1S(=O)(=O)c1ccc2c(c1)CCO2", "target": "CYP1A2", "assay": "enzyme activity, inhibitor", "system": "human, liver microsomes", "conditions": "10 µM", "measurement": "inhibition", "result": "34%"}
{"SMILES": "CNC(=O)C1CCCN(C(=O)C2CC3CCC2N3C(=O)[C@@H]2C[C@@H](O)CN2C(=O)NCc2cccc(Cl)c2F)C1 (mixture of isomers)", "target": "Cytochrome P450 2C8 (CYP2C8, Homo sapiens, UniProt P10632)", "assay": "preincubation without NADPH", "system": "human", "conditions": "0.0686 µM", "scale": "relative to: negative control", "measurement": "remaining activity", "result": "96.5% and 103%"}
